Experimental data of several laboratories.
Each line is one published result; not all experiments were run side by side. ± marks the error that the study gave. In brackets after ≈: the same amount, converted by molar mass.

Sequences of proteins named here, by UniProt entry; tags and fusion partners are left off. Residues count along the entry.
UniProt P36544, 23-502 limits assumed: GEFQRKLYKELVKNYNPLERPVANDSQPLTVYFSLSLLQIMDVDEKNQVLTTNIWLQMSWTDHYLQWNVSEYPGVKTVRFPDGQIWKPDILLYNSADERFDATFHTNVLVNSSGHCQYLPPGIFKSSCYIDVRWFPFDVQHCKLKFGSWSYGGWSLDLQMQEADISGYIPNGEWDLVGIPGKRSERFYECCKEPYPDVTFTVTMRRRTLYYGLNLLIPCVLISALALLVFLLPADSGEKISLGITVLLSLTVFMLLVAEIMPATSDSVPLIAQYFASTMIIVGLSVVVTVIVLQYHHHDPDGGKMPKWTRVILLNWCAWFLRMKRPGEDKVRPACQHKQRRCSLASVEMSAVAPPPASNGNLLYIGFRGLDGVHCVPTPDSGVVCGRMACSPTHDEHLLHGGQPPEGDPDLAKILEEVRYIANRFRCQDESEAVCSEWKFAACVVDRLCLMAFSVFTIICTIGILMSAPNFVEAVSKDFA
UniProt Q96SB4, whole entry: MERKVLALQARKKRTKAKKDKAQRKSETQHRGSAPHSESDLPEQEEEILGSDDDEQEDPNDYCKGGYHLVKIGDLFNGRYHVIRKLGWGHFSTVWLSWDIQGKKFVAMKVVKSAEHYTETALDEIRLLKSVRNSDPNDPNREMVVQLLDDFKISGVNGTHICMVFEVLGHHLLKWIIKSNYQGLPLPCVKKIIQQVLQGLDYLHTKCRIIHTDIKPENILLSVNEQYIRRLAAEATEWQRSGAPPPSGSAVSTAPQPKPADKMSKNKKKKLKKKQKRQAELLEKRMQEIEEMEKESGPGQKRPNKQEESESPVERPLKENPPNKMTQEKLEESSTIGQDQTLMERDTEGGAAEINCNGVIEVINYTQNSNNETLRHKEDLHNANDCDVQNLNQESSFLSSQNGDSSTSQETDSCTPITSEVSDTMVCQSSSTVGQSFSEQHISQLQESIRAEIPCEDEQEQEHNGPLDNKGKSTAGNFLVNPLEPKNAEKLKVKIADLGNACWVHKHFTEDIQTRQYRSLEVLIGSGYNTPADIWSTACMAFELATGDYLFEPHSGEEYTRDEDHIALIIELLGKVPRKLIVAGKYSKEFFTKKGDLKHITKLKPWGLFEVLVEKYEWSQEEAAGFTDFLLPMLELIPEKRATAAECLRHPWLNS
UniProt P28223, whole entry: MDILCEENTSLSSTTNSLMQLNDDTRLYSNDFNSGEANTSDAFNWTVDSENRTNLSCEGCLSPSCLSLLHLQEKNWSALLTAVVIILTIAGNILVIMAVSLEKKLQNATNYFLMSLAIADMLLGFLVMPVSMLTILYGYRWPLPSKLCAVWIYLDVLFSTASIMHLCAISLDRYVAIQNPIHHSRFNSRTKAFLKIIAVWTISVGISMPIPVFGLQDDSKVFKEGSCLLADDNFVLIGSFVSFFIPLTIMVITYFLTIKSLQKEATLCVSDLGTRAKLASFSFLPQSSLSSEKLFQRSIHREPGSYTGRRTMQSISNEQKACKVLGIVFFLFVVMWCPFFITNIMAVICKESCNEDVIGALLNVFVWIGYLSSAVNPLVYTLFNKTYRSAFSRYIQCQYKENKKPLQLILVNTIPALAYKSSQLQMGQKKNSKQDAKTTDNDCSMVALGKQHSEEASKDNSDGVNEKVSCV

| Structure (SMILES) | target or system | test | test system | conditions | how to read | endpoint | result |
| --- | --- | --- | --- | --- | --- | --- | --- |
| CO[C@H]1/C=C/O[C@@]2(C)Oc3c(C)c(O)c4c(O)c(c(/C=N/N5CCN(C)CC5)c(O)c4c3C2=O)NC(=O)/C(C)=C\C=C\[C@H](C)[C@H](O)[C@@H](C)[C@@H](O)[C@@H](C)[C@H](OC(C)=O)[C@@H]1C | Mycobacterium bovis BCG | bacterial growth | thyA mutant | thyA mutant | – | MIC50 | 0.0016 µM (≈ 0.00132 µg/mL) |
| CCN(CC)C(=O)Oc1ccc(C(=O)Nc2cccc3cc[nH]c23)cc1 | CHRNA7 (Homo sapiens, UniProt P36544) | modulator, two-electrode voltage clamp | Xenopus oocytes | 20 µM, with: 300 µM acetylcholine | reference: agonist alone | current response | 89.6 ± 4.2% |
| Cn1c(COc2ccc3nc4ccc(=O)cc-4oc3c2)cnc1[N+](=O)[O-] | Mycobacterium tuberculosis | – | mc2 6206 clofazimine-resistant fbiC mutant | 7 days | – | MIC90 | > 256 µM |
| CC#C/C(=N\OC[C@H]1COCCN1)c1ccc2ncnc(Nc3ccc(OCc4cccc(F)c4)c(Cl)c3)c2c1 | SRPK1 (Homo sapiens, UniProt Q96SB4) | kinase activity | – | 10 µM | – | inhibition | 9.3% |
| CCN1CCN(Cc2ccc(NC(=O)c3ccc(C)c(/C=C/c4cnc5[nH]ccc5c4OC)c3)cc2C(F)(F)F)CC1 | NPM1-ALK fusion | kinase-CDC37 interaction, cell-based kinome screen | – | 5 µM | reference: vehicle | log2 fold change | 0.02 |
| O=c1oc(-c2ccco2)ns1 | Mycobacterium bovis BCG | – | – | 25 µM | – | reduction in viable count | 1 log CFU |
| Nc1ccc(C(=O)O)c(O)c1 | Mycobacterium bovis | – | BCG Tac^r7.1, thyA A148E missense | TA-C-resistant thyA mutant | – | MIC50 | > 100 µM |
| Cc1cc2c(c(=S)[nH]1)C(=O)O/C2=C\c1c[nH]c2ccc(F)cc12 | Influenza B virus | viral replication, CPE, MTT | MDCK, B/Lee/40 | 72 h | – | EC50 | 21.1 ± 9.73 µM |
| CC[C@H](C)[C@H](NC(=O)[C@H](Cc1c[nH]c2ccccc12)NC(=O)[C@H](CCCCN)NC(=O)[C@H](CCCCN)NC(=O)[C@H](CC(C)C)NC(=O)[C@H](Cc1c[nH]c2ccccc12)NC(=O)[C@H](CCCCN)NC(=O)[C@@H](N)Cc1c[nH]c2ccccc12)C(=O)N[C@@H](CCCCN)C(N)=O | Mycobacterium bovis | – | TMC 1012, 7H9 broth | 48 h, 37 °C, with: sodium pyruvate 40 mM | – | MIC | 10 µM |
| O=[N+]([O-])c1cn2c(n1)OC[C@@H](OCc1ccc(OC(F)(F)F)cc1)C2 | Mycobacterium bovis | – | BCG Tac^r7.2, thyA W133S missense | TA-C-resistant thyA mutant | – | MIC50 | 0.2 µM (≈ 0.0719 µg/mL) |
| O=[N+]([O-])c1ccc(N2CCN(c3ccc([N+](=O)[O-])cc3[N+](=O)[O-])CC2)c([N+](=O)[O-])c1 | Staphylococcus aureus | – | resistant clinical isolate | – | – | MIC | > 500 µg/mL |
| CC(=O)N1C[C@@H](COP(=O)(N(C)C)N2C[C@@H](COP(=O)(N(C)C)N3C[C@@H](COP(=O)(N(C)C)N4C[C@@H](COP(=O)(N(C)C)N5C[C@@H](COP(=O)(N(C)C)N6C[C@@H](COP(=O)(N(C)C)N7C[C@@H](COP(=O)(N(C)C)N8C[C@@H](COP(=O)(N(C)C)N9C[C@@H](COP(=O)(N(C)C)N%10C[C@@H](COP(=O)(N(C)C)N%11C[C@@H](COP(=O)(N(C)C)N%12C[C@@H](COP(=O)(N(C)C)N%13C[C@@H](COP(=O)(N(C)C)N%14C[C@@H](COP(=O)(N(C)C)N%15C[C@@H](COP(=O)(N(C)C)N%16C[C@@H](COP(=O)(N(C)C)N%17C[C@@H](COP(=O)(N(C)C)N%18C[C@@H](COP(=O)(N(C)C)N%19C[C@@H](COP(=O)(N(C)C)N%20C[C@@H](COP(=O)(N(C)C)N%21C[C@@H](COP(=O)(N(C)C)N%22C[C@@H](COP(=O)(N(C)C)N%23C[C@@H](COP(=O)(N(C)C)N%24CCN(C(=O)CCCN%25C(=O)CC(SC[C@H](NC(=O)[C@H](CCCNC(=N)N)NC(=O)[C@H](CCCNC(=N)N)NC(=O)[C@H](CCCNC(=N)N)NC(=O)[C@H](CCCNC(=N)N)NC(=O)[C@H](Cc%26ccccc%26)NC(=O)[C@H](Cc%26ccccc%26)NC(=O)[C@H](CCCNC(=N)N)NC(=O)[C@H](CCCNC(=N)N)NC(=O)[C@H](CCCNC(=N)N)NC(=O)[C@H](CCCNC(=N)N)NC(=O)[C@@H](N)CCCNC(=N)N)C(N)=O)C%25=O)CC%24)O[C@@H](n%24cnc%25c(=O)[nH]c(N)nc%25%24)C%23)O[C@@H](n%23cc(C)c(=O)[nH]c%23=O)C%22)O[C@@H](n%22ccc(N)nc%22=O)C%21)O[C@@H](n%21cnc%22c(N)ncnc%22%21)C%20)O[C@@H](n%20cc(C)c(=O)[nH]c%20=O)C%19)O[C@@H](n%19ccc(N)nc%19=O)C%18)O[C@@H](n%18cc(C)c(=O)[nH]c%18=O)C%17)O[C@@H](n%17cc(C)c(=O)[nH]c%17=O)C%16)O[C@@H](n%16cnc%17c(=O)[nH]c(N)nc%17%16)C%15)O[C@@H](n%15ccc(N)nc%15=O)C%14)O[C@@H](n%14cnc%15c(=O)[nH]c(N)nc%15%14)C%13)O[C@@H](n%13ccc(N)nc%13=O)C%12)O[C@@H](n%12ccc(N)nc%12=O)C%11)O[C@@H](n%11cnc%12c(N)ncnc%12%11)C%10)O[C@@H](n%10cc(C)c(=O)[nH]c%10=O)C9)O[C@@H](n9cc(C)c(=O)[nH]c9=O)C8)O[C@@H](n8cc(C)c(=O)[nH]c8=O)C7)O[C@@H](n7cc(C)c(=O)[nH]c7=O)C6)O[C@@H](n6cc(C)c(=O)[nH]c6=O)C5)O[C@@H](n5cnc6c(=O)[nH]c(N)nc65)C4)O[C@@H](n4cc(C)c(=O)[nH]c4=O)C3)O[C@@H](n3cnc4c(=O)[nH]c(N)nc43)C2)O[C@@H](n2cnc3c(=O)[nH]c(N)nc32)C1 (stereo partly drawn) | Kaposi's sarcoma-associated herpesvirus | Western blot | BCBL1 cells | concentration not given | reference: mock-treated | LANA protein level | no effect |
| O=c1ccc2nc3ccc(OCC4CCCCC4)cc3oc-2c1 | Mycobacterium tuberculosis | – | mc2 6206 clofazimine-resistant fbiC mutant | 7 days | – | MIC90 | 68 µM (≈ 21 µg/mL) |
| CC[C@H](C)[C@H](NC(=O)[C@H](Cc1ccc(O)cc1)NC(=O)[C@H](CO)NC(=O)[C@H](CCC(=O)O)NC(=O)[C@H](CCC(=O)O)NC(=O)[C@H](CC(C)C)NC(=O)[C@H](CCCCN)NC(=O)[C@H](CCCCN)NC(=O)[C@@H](NC(=O)[C@@H](NC(=O)[C@H](CCC(=O)O)NC(=O)[C@H](CCC(=O)O)NC(=O)[C@H](CC(C)C)NC(=O)[C@H](CCCCN)NC(=O)[C@H](CCCCN)NC(=O)[C@H](CCSC)NC(=O)[C@H](CCC(=O)O)NC(=O)[C@H](Cc1ccc(O)cc1)NC(=O)[C@H](CCC(=O)O)NC(=O)[C@H](CC(C)C)NC(=O)[C@H](CC(=O)O)NC(=O)[C@H](CC(C)C)NC(=O)[C@H](CC(C)C)NC(=O)[C@@H](NC(=O)[C@@H](NC(=O)[C@H](CC(N)=O)NC(=O)[C@@H](NC(=O)[C@H](CCC(N)=O)NC(=O)[C@@H](NC(=O)[C@H](CC(C)C)NC(=O)[C@H](CO)NC(C)=O)[C@@H](C)O)[C@@H](C)CC)[C@@H](C)O)[C@@H](C)O)C(C)C)C(C)C)C(=O)N[C@@H](CC(=O)O)C(=O)N[C@@H](CC(C)C)C(=O)N[C@@H](CCCCN)C(=O)N[C@@H](CCC(=O)O)C(=O)N[C@@H](CC(C)C)C(N)=O | influenza A virus | viral replication | MDCK, A/Hong Kong/8/68 H3N2 | 72 h | – | EC50 | > 20 µM |
| CCCN1CCN(c2ccc3c(c2)C2CC3CCN2C(=O)OCc2ccccc2)CC1 (stereo not drawn) | HTR2A (Homo sapiens, UniProt P28223) | binding, radioligand binding | – | – | – | Ki | 1.27 µM |
| CCCCCCC1c2ccc(O)cc2Oc2cc(O)ccc21 | Escherichia coli | – | NR698 | no additive | – | MIC | 4.7 µg/mL |
| O=C(Nc1ccccc1)c1cc([N+](=O)[O-])ccc1Cl | Salmonella typhimurium | Ames plate incorporation | TA98 | 150 µg/plate, without metabolic activation | – | revertants | 130 ± 13 revertants/plate |
| CSCOc1ccc2nc3ccc(=O)cc-3oc2c1 | Mycobacterium tuberculosis | – | mc2 6206 clofazimine-resistant fbiC mutant | 7 days | – | MIC90 | 198 µM (≈ 54.1 µg/mL) |
| CC1(C)CCC(Cc2cc(O)c(-c3ccccc3)c(=O)[nH]2)CC1 | Mycobacterium bovis | – | BCG | concentration not given | – | resistance frequency | 1e-08 per cell |
| CSc1nc(Cl)cc(Sc2nnc(-c3cc(C(F)(F)F)cc(C(F)(F)F)c3)[nH]2)n1 | Escherichia coli | – | MC4100 | 42 °C, with: PMBN 25 µg/mL | – | MIC | 2 µg/mL |
| O=c1ccc2nc3ccc(OCc4ccc([N+](=O)[O-])o4)cc3oc-2c1I | Mycobacterium tuberculosis | – | mc2 6206, ddn mutant, PA-824-resistant | – | – | MIC90 | no effect |
| CCC(C)C1NC(=O)/C(=C(/C)O)C1=O (stereo not drawn) | Arabidopsis thaliana | apo-pHusion EGFP/mRFP1 ratio | elongating root cells | 10 µM | – | apoplastic pH increase | 0.1 |
| Nc1ccc2nc3ccc(=O)cc-3oc2c1 | Mycobacterium tuberculosis | – | mc2 6206 PA-824-resistant ddn mutant | 7 days | – | MIC90 | 4.8 µM (≈ 1.02 µg/mL) |
| Cc1ccc(S(=O)(=O)N(C)CC(=O)N(Cc2ccc(C3CCCCC3)cc2)c2ccc(C(=O)O)c(O)c2)cc1 | NIH3T3/v-Src, PANC-1, MDA-MB-231 | immunoblotting, measured: phospho-Erk1/2 | – | concentration not given, 24 h | – | phosphorylation level | no effect |
| NNC(=O)c1ccncc1 | Mycobacterium bovis | – | BCG Tac^r10.2, thyA W98R missense | TA-C-resistant thyA mutant | – | MIC50 | 0.4 µM (≈ 0.0549 µg/mL) |
| O=c1ccc2nc3ccc(OCC4CCCOC4)cc3oc-2c1 (stereo not drawn) | Mycobacterium tuberculosis | – | mc2 6206 clofazimine-resistant fbiC mutant | 7 days | – | MIC90 | 73 µM (≈ 22.7 µg/mL) |
| C[C@H](Cc1ccc(O)c(O)c1)[C@@H](C)Cc1ccc(O)c(O)c1 | – | – | human skin | 3% solution, 8 h, skin UV-treated 10 min | – | amount in epidermis | 19.3 ± 2.18 µg |

Some of these lines once more:
| Structure (SMILES) | target or system | test | test system | conditions | how to read | endpoint | result |
| --- | --- | --- | --- | --- | --- | --- | --- |
| Cn1c(COc2ccc3nc4ccc(=O)cc-4oc3c2)cnc1[N+](=O)[O-] | Mycobacterium tuberculosis | – | mc2 6206 clofazimine-resistant fbiC mutant | 7 days | – | MIC90 | > 256 µM |
| CC#C/C(=N\OC[C@H]1COCCN1)c1ccc2ncnc(Nc3ccc(OCc4cccc(F)c4)c(Cl)c3)c2c1 | SRPK1 (Homo sapiens, UniProt Q96SB4) | kinase activity | – | 10 µM | – | inhibition | 9.3% |
| CCN1CCN(Cc2ccc(NC(=O)c3ccc(C)c(/C=C/c4cnc5[nH]ccc5c4OC)c3)cc2C(F)(F)F)CC1 | NPM1-ALK fusion | kinase-CDC37 interaction, cell-based kinome screen | – | 5 µM | reference: vehicle | log2 fold change | 0.02 |
| O=c1oc(-c2ccco2)ns1 | Mycobacterium bovis BCG | – | – | 25 µM | – | reduction in viable count | 1 log CFU |
